# Assay results gathered from unrelated publications.
# Every numbered part comes from another study and shows a few of its results, in no order.

# Sample 1 — method: competition protein-binding microarray; form: double-stranded DNA, one strand shown; sample: in vitro; concentration: 2 µM; added: Cbf1 competitor, 0.05 µM; direction: higher = stronger binding
# Target: Phosphate system positive regulatory protein PHO4, full length, GST-tagged (PHO4, Saccharomyces cerevisiae, UniProt P07270, residues 1-312)
# Setting: whole 60-bp probe, lowest competitor level
# Residues (chain): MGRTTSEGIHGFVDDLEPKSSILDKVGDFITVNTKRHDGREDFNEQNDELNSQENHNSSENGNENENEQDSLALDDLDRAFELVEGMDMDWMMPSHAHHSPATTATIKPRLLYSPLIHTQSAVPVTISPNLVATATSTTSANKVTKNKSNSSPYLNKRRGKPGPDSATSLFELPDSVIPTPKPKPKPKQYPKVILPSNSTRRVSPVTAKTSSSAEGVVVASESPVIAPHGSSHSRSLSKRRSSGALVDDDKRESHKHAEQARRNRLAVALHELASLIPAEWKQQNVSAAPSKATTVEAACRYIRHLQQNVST
Oligonucleotide,fluorescence intensity
TTGCAATACACTCGGCACGCACTTTATCACTGGGCTGTCTTGATTCGCTTGACGCTGCTG,8320 a.u.
GTCTTGTCTCATTGCCCAGTGGGTGTCCCCACTTCAGTCTTGATTCGCTTGACGCTGCTG,4430 a.u.
CGTATGGTCTGCGACCTTGGGACATACAGTAAGTAGGTCTTGATTCGCTTGACGCTGCTG,4710 a.u.
AAAGCGGTAATTTGGCGCGTGGGTGCAGATATCTATGTCTTGATTCGCTTGACGCTGCTG,10900 a.u.

# Sample 2 — method: universal PBM; form: double-stranded DNA, one strand shown; sample: in vitro; concentration: 600 nM; direction: higher = stronger binding
# Target: Sal-like protein 4, full length isoform A (SALL4, Homo sapiens, UniProt Q9UJQ4, residues 1-1053)
# Chain of UniProt Q9UJQ4 (whole entry, looked up): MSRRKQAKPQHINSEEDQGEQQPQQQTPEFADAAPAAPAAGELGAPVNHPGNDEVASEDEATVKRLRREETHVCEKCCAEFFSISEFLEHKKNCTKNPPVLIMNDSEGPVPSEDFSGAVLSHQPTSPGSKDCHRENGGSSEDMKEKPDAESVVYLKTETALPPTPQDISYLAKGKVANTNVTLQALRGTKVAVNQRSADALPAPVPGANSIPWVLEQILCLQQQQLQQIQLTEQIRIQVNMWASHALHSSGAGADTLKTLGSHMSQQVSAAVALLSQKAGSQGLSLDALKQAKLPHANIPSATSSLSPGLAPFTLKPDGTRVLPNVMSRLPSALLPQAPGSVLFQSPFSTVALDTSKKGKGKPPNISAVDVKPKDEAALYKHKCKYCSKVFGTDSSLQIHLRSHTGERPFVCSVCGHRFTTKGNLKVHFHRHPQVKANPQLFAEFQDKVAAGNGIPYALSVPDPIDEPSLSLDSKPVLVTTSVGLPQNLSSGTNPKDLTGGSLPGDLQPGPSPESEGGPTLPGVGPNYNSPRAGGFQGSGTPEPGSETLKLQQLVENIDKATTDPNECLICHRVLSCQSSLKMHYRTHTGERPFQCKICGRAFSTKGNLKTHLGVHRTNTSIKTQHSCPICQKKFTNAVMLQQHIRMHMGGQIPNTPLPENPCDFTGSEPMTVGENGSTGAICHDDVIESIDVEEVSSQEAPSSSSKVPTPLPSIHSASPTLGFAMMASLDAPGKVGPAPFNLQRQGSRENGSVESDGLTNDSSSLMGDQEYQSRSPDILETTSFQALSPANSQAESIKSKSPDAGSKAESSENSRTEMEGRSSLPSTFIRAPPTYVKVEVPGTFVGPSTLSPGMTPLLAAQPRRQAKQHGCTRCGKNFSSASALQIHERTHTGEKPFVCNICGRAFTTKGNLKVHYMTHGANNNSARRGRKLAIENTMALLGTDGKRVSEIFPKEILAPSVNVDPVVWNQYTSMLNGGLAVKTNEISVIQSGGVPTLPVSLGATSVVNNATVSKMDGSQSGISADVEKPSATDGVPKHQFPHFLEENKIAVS
# Setting: 8-mer, flanks averaged, mean of replicates
Oligonucleotide,E-score
AACCAACG,-0.093
CAATCCCC,0.00355
GTGTGGTA,-0.0714
GAAGAGCA,-0.0305

# Sample 3 — method: RNA Bind-n-Seq; form: RNA; sample: in vitro; concentration: 365 nM; relative to: no-protein control; direction: higher = stronger binding
# Target: RNA binding protein fox-1 homolog 2, RRM domain, GST-SBP tag (RBFOX2, Homo sapiens, UniProt O43251-10, residues 100-194)
# Setting: natural RNA segment, single round, ends assumed
# All sequences stand within: GGGAGUUCUACAGUCCGACGAUC … UGGAAUUCUCGGGUGCCAA
# Target sequence (chain): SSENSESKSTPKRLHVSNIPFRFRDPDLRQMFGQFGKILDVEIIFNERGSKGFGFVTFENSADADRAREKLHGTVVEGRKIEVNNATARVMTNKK
Oligonucleotide,RBNS enrichment (R)
UGGCAUGCCUGUGUAUGUGUGUAACAGGAUUCUGAAUGUUAGGUUGUAAUGCUAUUCCUGUAUGGGAGAAAAAAUAAUAUAAACAAAUAAAAAUCUAUUUAAAGCACAUU,32.8
GCCUAGCUGGCCUUAUUUGUGAAGCAUAAUUGCUUUUAGCAUAUGGAAGUAUUUUUUCACAUUUUCUUUGUAUAAAAUUUGUAUUAAACUUAAAUAUCUUUUUGAUGGUG,0.637
CACCGUUCAGGAGGAAGAAAGACUCGGUCACUGAGUGAAGUGGGCUGUGCUCCUGUGAACUGCAGUGCUCCUUGUGCCUGCUGUGAACUGCAGUGCUCCCCAGUGCAGUC,1.39
AGGGAGCAGCUGAUUUUUUCAUUUUCUUGCCACAAGGCAUGUUGACAGAAGAAUAAAAUUCUUUGUAGACAGUCAUCUUCAAAUGUACUGUCCGCCCCUUGCCUGGAGAC,2.5
ACCCCCGAGGUCUUCCUUGAACAUCAGGCUUCCAGGCCCCGUUAUCUUCGCCCCAGGAAGGGUGCAUGGGCUCCCACUUUAAUUUUUCUCUUCCAAGUCUCCAGAUUCUG,1.1
GACAGAGAUCCUUGGAGGUUCAAAGACCAAGUACCAGACUGGAAAAUUGAGUCUGAAAGCCACAAGGACAGUCAACUCACAGCCAGCUCACAUUGCAGACACCAUUUUGG,0.255

# Other studies, line by line
Substance,target,test,test system,setting,scale,endpoint,result
"PhoQ, residues 284 288 289 292 302 303 SLGVVW","PhoP, residues 12 14 15 18 19 STHWV (Escherichia coli, UniProt P23836)","Sort-seq, refers to: YFP reporter",E. coli,"PhoQ-PhoP variant library, added: 10 µM Mg2+","relative to: high Mg2+ state, higher = stronger signaling",fold induction,23.4

# Repeated from above (sample 2):
Oligonucleotide,E-score
AACCAACG,-0.093
CAATCCCC,0.00355
